Experimental data gathered from unrelated publications.
Parts stem from different laboratories: compare values within a part only. Positions count from the first letter of the parent shown.
Sequence of UniProt Q969T4 (whole entry, looked up): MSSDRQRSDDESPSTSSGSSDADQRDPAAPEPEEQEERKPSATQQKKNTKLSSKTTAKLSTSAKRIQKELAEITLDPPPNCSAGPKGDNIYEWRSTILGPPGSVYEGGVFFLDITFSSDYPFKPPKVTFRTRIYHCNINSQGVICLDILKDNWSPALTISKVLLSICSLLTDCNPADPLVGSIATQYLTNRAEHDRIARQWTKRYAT
Sequence of UniProt P51668 (whole entry, looked up): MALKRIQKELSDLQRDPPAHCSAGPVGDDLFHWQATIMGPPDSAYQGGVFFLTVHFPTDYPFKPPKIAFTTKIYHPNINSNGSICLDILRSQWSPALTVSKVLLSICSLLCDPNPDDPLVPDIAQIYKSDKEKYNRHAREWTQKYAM
Sequence of UniProt P61081 (whole entry, looked up): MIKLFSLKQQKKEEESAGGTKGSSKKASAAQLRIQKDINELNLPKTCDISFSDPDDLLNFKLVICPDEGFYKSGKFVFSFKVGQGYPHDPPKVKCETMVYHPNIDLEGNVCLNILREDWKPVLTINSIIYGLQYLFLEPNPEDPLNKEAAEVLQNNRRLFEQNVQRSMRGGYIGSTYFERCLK
Sequence of UniProt Q9C0C9 (whole entry, looked up): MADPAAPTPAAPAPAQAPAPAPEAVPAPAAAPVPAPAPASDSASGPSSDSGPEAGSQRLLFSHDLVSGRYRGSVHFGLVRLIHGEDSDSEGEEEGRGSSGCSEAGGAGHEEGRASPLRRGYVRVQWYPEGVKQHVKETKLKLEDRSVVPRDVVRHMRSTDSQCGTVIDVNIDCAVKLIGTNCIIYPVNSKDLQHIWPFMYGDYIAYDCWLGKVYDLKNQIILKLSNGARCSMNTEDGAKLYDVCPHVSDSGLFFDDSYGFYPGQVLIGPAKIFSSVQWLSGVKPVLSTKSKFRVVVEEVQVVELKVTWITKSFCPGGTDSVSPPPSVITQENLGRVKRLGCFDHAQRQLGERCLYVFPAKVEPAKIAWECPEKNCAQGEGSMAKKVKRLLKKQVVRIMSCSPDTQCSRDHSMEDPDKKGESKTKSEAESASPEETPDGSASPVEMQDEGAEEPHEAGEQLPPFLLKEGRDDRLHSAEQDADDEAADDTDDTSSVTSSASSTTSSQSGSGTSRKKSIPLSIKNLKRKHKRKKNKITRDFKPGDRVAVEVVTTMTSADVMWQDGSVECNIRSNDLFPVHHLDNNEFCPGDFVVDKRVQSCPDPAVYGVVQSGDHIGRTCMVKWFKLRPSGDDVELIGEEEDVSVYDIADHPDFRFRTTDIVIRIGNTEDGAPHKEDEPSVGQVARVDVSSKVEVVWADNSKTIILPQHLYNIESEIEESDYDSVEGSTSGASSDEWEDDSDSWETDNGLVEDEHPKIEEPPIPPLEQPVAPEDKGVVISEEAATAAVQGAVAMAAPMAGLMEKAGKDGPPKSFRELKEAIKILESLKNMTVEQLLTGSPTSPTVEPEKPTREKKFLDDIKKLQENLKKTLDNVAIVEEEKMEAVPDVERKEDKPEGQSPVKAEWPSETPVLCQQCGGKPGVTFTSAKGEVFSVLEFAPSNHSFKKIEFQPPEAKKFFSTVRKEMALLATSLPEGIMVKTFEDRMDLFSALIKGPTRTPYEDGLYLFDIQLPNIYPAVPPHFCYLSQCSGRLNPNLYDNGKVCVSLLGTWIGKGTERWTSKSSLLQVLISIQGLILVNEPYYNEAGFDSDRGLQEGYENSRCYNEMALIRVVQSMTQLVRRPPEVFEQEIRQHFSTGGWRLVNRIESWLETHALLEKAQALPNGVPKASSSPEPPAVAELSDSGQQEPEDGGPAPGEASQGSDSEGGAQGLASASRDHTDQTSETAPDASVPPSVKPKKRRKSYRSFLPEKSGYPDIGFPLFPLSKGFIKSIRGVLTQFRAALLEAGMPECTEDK
Sequence of UniProt Q9Y385 (whole entry, looked up): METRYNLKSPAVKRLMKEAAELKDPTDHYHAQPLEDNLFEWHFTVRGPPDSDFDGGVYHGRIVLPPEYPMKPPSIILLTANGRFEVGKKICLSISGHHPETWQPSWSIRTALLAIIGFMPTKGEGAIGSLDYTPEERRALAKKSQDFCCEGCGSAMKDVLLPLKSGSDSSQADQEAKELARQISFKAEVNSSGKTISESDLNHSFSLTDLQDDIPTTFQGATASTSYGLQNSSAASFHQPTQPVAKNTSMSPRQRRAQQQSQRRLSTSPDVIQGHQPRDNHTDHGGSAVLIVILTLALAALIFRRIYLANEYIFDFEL
Sequence of UniProt P62253 (whole entry, looked up): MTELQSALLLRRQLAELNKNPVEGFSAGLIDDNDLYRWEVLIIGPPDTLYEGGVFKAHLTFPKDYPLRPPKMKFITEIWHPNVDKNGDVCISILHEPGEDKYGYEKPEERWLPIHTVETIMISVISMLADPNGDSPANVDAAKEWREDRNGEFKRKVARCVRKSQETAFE

Sample 1
Sequence: FASPPDSNFVCSVCHGVLKRPARLPCSHIFCKKCILRWLARQKTCPCCRKEVKRKKVVH (RNF151 RING domain (UniProt Q2KHN1))
Technique: yeast two-hybrid
Medium: yeast
Setting: mostly zero background
Relative to: not given
Direction: higher = stronger interaction
target	lacZ reporter activity
BIRC6 UBC core domain (UniProt Q9NR09)	0
UBE2G1 UBC core domain (UniProt P62253)	0
UBE2E3 UBC core domain (UniProt Q969T4)	0
UBE2D1 UBC core domain (UniProt P51668)	0
UBE2M UBC core domain (UniProt P61081)	0
UBE2O UBC core domain (UniProt Q9C0C9)	0
UBE2J1 UBC core domain (UniProt Q9Y385)	0

Sample 2
Target: ABI1, truncated, D143A, DHFR fusion (Arabidopsis thaliana)
Technique: DHFR PCA, deep sequencing
Medium: yeast
Setting: methotrexate growth selection, single substitutions
Together with: (+)-ABA 0 µM
Relative to: wild-type fitted maximum
Direction: higher = stronger binding
Starting sequence: PYL1, truncated, DHFR fusion (Arabidopsis thaliana); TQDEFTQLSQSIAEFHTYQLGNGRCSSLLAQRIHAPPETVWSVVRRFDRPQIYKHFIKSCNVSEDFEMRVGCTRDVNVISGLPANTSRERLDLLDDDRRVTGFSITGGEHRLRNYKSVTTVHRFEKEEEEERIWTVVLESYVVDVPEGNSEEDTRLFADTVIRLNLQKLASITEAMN
Substitution	relative binding score
S104T	33.6%
I52P	-4.28%
R45D	-0.559%
L29Q	6.4%
R163D	-1.54%
V145R	-7.18%
F66E	1.37%
S87E	-7.92%
R111G	5.84%
E131Y	11.4%
S87K	6.43%
N77V	56.1%
T154D	-9.46%
E109K	-1.49%
N114V	0.588%
H55F	8.02%
Q31S	-2.5%
R46N	-3.35%
Q10A	42.2%

Sample 3
Target: CCND3, cyclin fold, Cln2 fusion (human)
Technique: yeast growth competition, sequencing
Medium: yeast
Setting: weak parent motif
Relative to: not given
Direction: higher = stronger binding
Starting sequence: SLBP docking peptide (human); ARYKRKLLINDFG
Substitution	normalised enrichment score
L7H	0.214
K4C	0.0899
A1I	0.0996
R2C	0.0834
Y3R	0.101
L7A	0.0768
N10S	0.176
Y3F	0.186
A1C	-0.0109
L7T	0.106
Y3W	0.0813
A1H	0.0919
N10C	0.126
Y3P	0.111
G13T	0.101
I9F	0.0674
G13W	0.0275
D11C	0.128
G13F	0.11
R2F	0.279
L8V	0.223
R5K L8F	0.183
Y3Q	0.112
K6V	0.19
D11R	0.144

Sample 4
Target: RNA binding protein fox-1 homolog 2, RRM domain, GST-SBP tag (RBFOX2, Homo sapiens, UniProt O43251-10, residues 100-194)
Technique: RNA Bind-n-Seq
Form: RNA
Medium: in vitro
Tested at: 365 nM
Setting: natural RNA segment, single round, ends assumed
Relative to: no-protein control
Direction: higher = stronger binding
Target sequence (chain): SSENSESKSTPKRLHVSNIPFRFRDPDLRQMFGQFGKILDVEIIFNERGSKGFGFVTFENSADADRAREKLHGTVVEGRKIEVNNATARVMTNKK
Oligonucleotide	RBNS enrichment (R)
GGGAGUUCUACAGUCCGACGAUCUGUGCAUGUAGAACACAAGAAGACCCUUUUCUUCUGGAUCCUCUGCUAGCUACCAUCUAAACUGUCCCAUUUUGACCCCUUUCUCCCCAUUAAGCCCUCUACGCUUGGCCUGGAAUUCUCGGGUGCCAA	1.26
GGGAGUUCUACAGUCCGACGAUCACUGACUUCAAUAUUUCAGCAGGGUACACAGGCGUUUCCAAGUUUCAGUGACACCGUCCUGCCUAACCAGAUGCGGUCAGCCUCUUCACACCCACCUGGCUUGCAUCCCCUGGAAUUCUCGGGUGCCAA	0.634
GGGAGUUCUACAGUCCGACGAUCUCCAGCGUUUUUACUGUGAAUGUAAAUGGAACAGCAGCCCAAAGCUGUUGUCUGUGCCCCAGAGGUGCUACCUGUAGACAGGGACCAACUCCAUGUGUGUGUGUUAAGUGUGGAAUUCUCGGGUGCCAA	0.993
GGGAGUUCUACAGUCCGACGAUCGCAGAUAACCACUUGUUCUUUACUUUUUACAGGUGUGGGAUCCCGAUCCUGAGCUGUGUCCUCUGUGAGGACUUCCCUCCCAGGCUUCAAUCCAGAUGUUUCGUUUCCAGUGGAAUUCUCGGGUGCCAA	0.213
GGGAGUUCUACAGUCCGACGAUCUUGCACAUCAUGGAGGGUUUAGUGCUUAUCUAAUUUGUGCCUCACUGGACUUGUCCAAUUAAUGAAGUUGAUUCAUAUUGCAUCAUAGUUUGCUUUGUUUAAGCAUCACAUGGAAUUCUCGGGUGCCAA	0.719
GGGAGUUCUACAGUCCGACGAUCGGUGUAUGCUUUGUUCUUUCCAUCUCAAGCAUUUAUCCAAAUUCUGCUCACAGACAUGAGGAAGCAGGCUGUAGAUUUAAGGGCACUCAAGGGGAAAACAAAUGUAGUUUUGGAAUUCUCGGGUGCCAA	0.609
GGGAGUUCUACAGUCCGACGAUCUUUAAUACAUAAAUGAACGGGUACUGGUGCCUCUUUAUUUUUAAAAAUUUGAAGAAAAAGAGCCACCUCAUAUUCAUAGAGUGUGUAUUUUGUGAGUGUGUGAGCAUUUGUGGAAUUCUCGGGUGCCAA	0.309
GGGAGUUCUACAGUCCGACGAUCUGAAGCCGUCCUUUGUAGGAUGUUUCUUGCCACUUACGCUGUACUGUAGUUGCUUAUUCUUUCUGCCUUCUGCUUCAGCGUGAGGCUUCUUUGGUUUUCUGUGGCAGCGUUGGAAUUCUCGGGUGCCAA	0.352

Sample 5
Target: Prothrombin, mature alpha-thrombin (F2, Homo sapiens, UniProt P00734)
Technique: aptamer microarray, sandwich
Form: DNA with 2'F-ANA
Medium: in vitro
Tested at: 200 nM
Setting: whole 15-mer aptamer, many near background
Together with: Cy3 exosite-II aptamer, 400 nM
Direction: higher = stronger binding
Oligonucleotide: GGTTGGTGTGGTTGG
Modification	mean fluorescence intensity [a.u.]
2'F-ANA at 5 6 10 12 14	43.8
2'F-ANA at 1 3 4 7 9 10 11 12 14 15	65.8
2'F-ANA at 4 5 9 11 12 14 15	44.8
2'F-ANA at 1 2 7 8 9 11 12 13 14 15	66.4
2'F-ANA at 1 2 3 4 5 6 10 11 15	51.1
2'F-ANA at 1 2 3 4 5 9 12 15	111
2'F-ANA at 1 2 4 5 7 9 11 12 13 15	63
2'F-ANA at 2 3 4 6 9 10 12 14 15	153
2'F-ANA at 2 4 7 9 10 11 13	93.6
2'F-ANA at 2 3 4 5 7 12 13	108
2'F-ANA at 2 4 5 6 7 8 9 10 12 14 15	54.1
2'F-ANA at 3 4 5 8 10 11 13	50.2
2'F-ANA at 3 4 5 6	90.5
2'F-ANA at 1 2 3 9 13	147
2'F-ANA at 1 2 6 7 9 10 12 13 15	64.9
2'F-ANA at 1 2 3 5 8 9 10 15	47.1
2'F-ANA at 1 2 6 7 9 10 13 14	48.1
2'F-ANA at 2 4 5 7 8 9 11 12 14 15	59.6
2'F-ANA at 1 2 3 4 5 6 7 10 11 12 13 15	50.7
2'F-ANA at 5 10 11 12 13	73.8
2'F-ANA at 3 4 6 9 10 11 13 14	226
2'F-ANA at 2 4 6 7 11 12 14	131
2'F-ANA at 4 7 9 12 13	356
2'F-ANA at 3 4 12 13 15	771

A few entries again (sample 1):
target	lacZ reporter activity
BIRC6 UBC core domain (UniProt Q9NR09)	0
UBE2G1 UBC core domain (UniProt P62253)	0
UBE2E3 UBC core domain (UniProt Q969T4)	0
UBE2D1 UBC core domain (UniProt P51668)	0
UBE2M UBC core domain (UniProt P61081)	0
UBE2O UBC core domain (UniProt Q9C0C9)	0
UBE2J1 UBC core domain (UniProt Q9Y385)	0
